Results of several laboratories.
Compare with care: the assays were run in different laboratories. “And” joins repeats or separate records; there may be more than shown. ± gives the spread as reported.

| Compound | test | test system | conditions | scale | quantity | value |
| --- | --- | --- | --- | --- | --- | --- |
| O=C(OC(C(F)(F)F)C(F)(F)F)N1CCN(Cc2cccc(Oc3ccccc3)c2)CC1 | PET blocking study | rhesus monkey, brain THA | 0.03 mg/kg, compound pretreatment, added: [18F]T-401 tracer |  | Ktrans | 0.0008 min⁻¹ |
| CCOC(=O)N1C[C@@H](C2CCCC2)N[C@@H](c2cc(Cl)cc(Cl)c2)C1 | shake-flask, LC-HRMS | aqueous buffer | 16 h, pH 6.8 |  | solubility | < 4 µM |
| O=C(Nc1ccc(OC(F)(F)Cl)cc1)c1cnc(N2CC[C@@H](O)C2)c(-c2ccn[nH]2)c1 | per patient, item: absolute neutrophil decrease | human patients | oral, dose not given, dose-finding study |  | grade ≥3 event rate | 17.2% |
| CC[C@H](C)[C@H](NC(=O)CN)C(=O)N[C@@H](CC(C)C)C(=O)N[C@@H](CC(=O)O)C(=O)N[C@@H](C)C(=O)N[C@H](C(=O)N[C@@H](CC(C)C)C(=O)N[C@@H](CC(=O)O)C(=O)N[C@@H](C)C(=O)N[C@H](C(=O)N[C@@H](CCCCN)C(=O)N[C@@H](C)C(=O)N[C@H](C(=O)N[C@@H](C)C(=O)N[C@@H](CCCCN)C(=O)N[C@@H](C)C(=O)N[C@H](C(=O)N[C@@H](CCCCN)C(=O)N[C@@H](C)C(=O)N[C@@H](CCCCN)C(=O)N[C@@H](C)C(=O)NCC(N)=O)[C@@H](C)CC)[C@@H](C)CC)[C@@H](C)CC)[C@@H](C)CC | circular dichroism | 10 mM SDS | 100 µM |  | helical content | 49% |
| C=CCN1CC(=O)N2[C@@H](Cc3ccc(O)cc3F)C(=O)N(Cc3cccc(N4CC(N5CCN(CC)CC5)C4)n3)C[C@@H]2N1C(=O)NCc1ccccc1 |  | advanced solid tumour patients | oral, 120 mg twice daily, any grade, dose-escalation |  | treatment-related nausea | 87.5% |
| CCOc1c([C@H](C)n2nc(C)c3c(N)ncnc32)cc(Cl)c(F)c1[C@@H]1CNC(=O)C1 | item: QTcF change ≤30 ms | previously treated B-cell malignancy | oral, 15 mg once daily, baseline QTcF ≤450 ms | relative to: baseline | ECG observations | 100% |
| COc1ncc(-c2nc3c(n2C(C)C)[C@H](c2ccc(Cl)cc2)N(c2cc(Cl)cn(C)c2=O)C3=O)c(OC)n1 |  | human patients, plasma | oral, 7.5 mg, low-dose arm, cycle 1 day 8 |  | median Tmax | 4 h |
| Cc1ccc(Sc2ccccc2N2CCNCC2)c(C)c1 |  | healthy adult men | oral, 2.5 mg single |  | increased blood creatine phosphokinase | 0% |
| COc1ccc([C@@H](O)c2cc(-c3ncnc4cc(N5CCOCC5)ccc34)c(F)cc2Cl)nn1 |  | locally advanced rectal cancer | all dose levels overall, added: capecitabine and radiotherapy |  | TEAE, lymphocyte count decreased | 37% |
| CCCC(=O)Nc1cc(C2CC2)[nH]n1 |  | aqueous buffer | pH 7.4 |  | solubility | 1180 µg/mL |
| CCOC(=O)N1C[C@@H](c2cccnc2)N[C@@H](c2ccc(C(=O)OC)cc2)C1 | shake-flask, LC-HRMS | aqueous buffer | 16 h, pH 6.8 |  | solubility | > 750 µM |
| Cn1ncnc1[C@H]1c2n[nH]c(=O)c3cc(F)cc(c23)N[C@@H]1c1ccc(F)cc1 |  | human patients, plasma | oral, 400 µg/m2 twice daily day 1, day 5, dose level DL2, median, added: temozolomide 20 mg/m2 daily days 2-6 |  | AUCτ | 129 ng·h/mL |
| C=CC(=O)Nc1cc(Nc2nccc(-c3cn(C)c4ccccc34)n2)c(OC)cc1N(C)CCN(C)C |  | human, plasma | oral, 80 mg, cycle 3 day 1, osimertinib alone, randomized arm |  | Tmax at steady state | 4.03 h |
| CN1CCC(CNc2ccc3ncc(-c4cccc(OC(F)(F)F)c4)n3n2)CC1 | skin sensitisation signature, BioMAP Diversity PLUS | primary human cell cocultures |  |  | lowest toxic concentration | 3.3 µM |
| CCOC(=O)N1C[C@@H](c2ccccc2O)N[C@@H](c2ccc(-c3ccccc3)cc2)C1 | shake-flask, LC-HRMS | aqueous buffer | 16 h, pH 6.8 |  | solubility | < 4 µM |
| COc1ccccc1NC(=O)CSc1nnc(-c2ccccc2Cl)n1-c1ccccc1 |  | aqueous buffer | pH 7.4 |  | solubility | < 3.22 µg/mL |
| Cc1ccc([C@@H]2O[C@H](CO)[C@@H](O)[C@H](O)[C@H]2O)cc1Cc1ccc(-c2ccc(F)cc2)s1 |  | Japanese type 2 diabetes patients | 400 mg, day 17, 24 h urine collection | relative to: baseline | urinary calcium excretion change | 2.85 mg |
| CCOC(=O)N1C[C@@H](c2ccc(C(C)=O)cc2)N[C@@H](C(C)(C)C)C1 | shake-flask, LC-HRMS | aqueous buffer | 16 h, pH 6.8 |  | solubility | < 4 µM |
| Cn1cnc2ccc(Nc3c(F)ccc(NS(=O)(=O)N4CC(F)C4)c3Cl)c(Cl)c2c1=O | item: headache grade 1-2 | human patients | dose not given, monotherapy trial | relative to: patients | patients with headache | 5% |
| CCc1c2c(nc3ccc(OC(=O)N4CCC(N5CCCCC5)CC4)cc13)-c1cc3c(c(=O)n1C2)COC(=O)[C@]3(O)CC |  | male Sprague-Dawley rat, urine | i.v., 10 mg/kg | relative to: dose | cumulative urinary excretion | 11% |
| COc1ccc([C@@H]2COC[C@H](c3ccc(C(C)(C)C)cc3)N2)cc1 | shake-flask, LC-HRMS | aqueous buffer | 16 h, pH 6.8 |  | solubility | < 4 µM |
| O=C(O)CCC(=O)O.[2H]C([2H])([2H])Oc1cc(C)c2[nH]ccc2c1CN1CC[C@@H](C2CC2)C[C@H]1c1ccc(C(=O)O)cc1 | multiple ascending dose | healthy Chinese subjects | 300 mg once daily |  | subjects with TEAE Diarrhea | 0% |
| CCCC1CCC(c2ccc(-c3ccc(CC)cc3)cc2)CC1 (centres unmarked) |  | rat, placenta | 5000 ng/mL in perfusate, high dose, mixture of 21 LCMs |  | placental accumulation | 375 ± 426 ng/g |
| COC(=O)c1ccccc1-c1c2ccc(=O)cc-2oc2c1ccc1cccc(N(C)C)c12 |  | aqueous HCl 10% DMSO | pH 1.9 |  | Stokes shift | 100 nm |

| Compound | test | test system | conditions | scale | quantity | value |
| --- | --- | --- | --- | --- | --- | --- |
| CC(C)=CCC/C(C)=C/CC/C(C)=C/CC[C@@](C)(O)CCC1=C(C)C(=O)C(C)=C(C)C1=O |  | human | 400 mg, added: itraconazole 200 mg |  | itraconazole half-life | no effect |
| O=c1[nH]c(=O)n([C@H]2C[C@H](O)[C@@H](CO)O2)cc1CCCCC[18F] |  | male CD-1 nu/nu mice, RG2 tumour, heart | intravenous, dose not given, 2 h |  | biodistribution | 0.14 ± 0.02 %ID/g |
| CCn1cc(C(=O)N2CCOCC2)c(=O)c2cc(NC3Cc4ccccc4C3)cnc21 |  | human, fasted | oral suspension, 50 mg single dose, arithmetic mean |  | half-life | 7.71 h |
| CN[C@H](CC(C)C)C(=O)N[C@H]1C(=O)N[C@@H](CC(N)=O)C(=O)N[C@H]2C(=O)N[C@H]3C(=O)N[C@H](C(=O)N[C@H](C(=O)O)c4cc(O)cc(O)c4-c4cc3ccc4O)[C@H](O)c3ccc(c(Cl)c3)Oc3cc2cc(c3O[C@@H]2O[C@H](CO)[C@@H](O)[C@H](O)[C@H]2O[C@H]2C[C@](C)(N)[C@H](O)[C@H](C)O2)Oc2ccc(cc2Cl)[C@H]1O | E-AB sensor | male C57BL/6J mice, cortex | intravenous, 35 mg/kg, 4 h |  | concentration | 4.3 ± 0.7 µM |
| N#Cc1ccc([C@@H]2COC[C@@H](C3CCCC3)N2)cc1 | shake-flask, LC-HRMS | aqueous buffer | 16 h, pH 6.8 |  | solubility | > 750 µM |
| C[C@@H](Oc1ccc(S(C)(=O)=O)cc1C(=O)N1C[C@@H]2C[C@]2(c2cc(C(F)(F)F)on2)C1)C(F)(F)F |  | elderly humans, plasma | oral, 25 mg once daily, geometric mean | relative to: AUCtau,ss over AUC(0-inf) | linearity index | 0.964 |
| O=C(Nc1nc2cccc(-c3ccc(CN4CCS(=O)(=O)CC4)cc3)n2n1)C1CC1 | item: non-infective cystitis | rheumatoid arthritis patients | oral, 30 mg once daily, 4 weeks, any relatedness |  | treatment-emergent adverse events | 0% |
| COc1ccc2c(c1)CN(C(=O)CCN1CCC(Cc3ccccc3)CC1)CC[S@@+]2[O-] | telemetry | conscious male beagle dogs | intravenous, 8 mg/kg, 1 h |  | QRS duration | 32 ± 8 ms |
| CNCCOC12CC3(C)CC(C)(CC(Cn4ncc(-c5ccc(N6CCc7cccc(C(=O)Nc8nc9ccccc9s8)c7C6)nc5C(=O)O)c4C)(C3)C1)C2 |  | beagle dog, male, anaesthetised | intravenous bolus, 0.03 mg/kg, 45 min | relative to: baseline | QRS duration change | -1 ms |
| CC(C)(C(=O)N1CCOc2c(C#N)cncc2C1)C(F)F | item: eye disorders | healthy humans, both sexes | oral, 30 mg single dose |  | subjects with TEAE | 16.7% |
| Cc1cc([C@H]2C[C@H]3[C@@H](CF)SC(N)=N[C@@]3(c3ccc(F)cc3F)CO2)on1 |  | 129/SVE wild-type mouse, male | subcutaneous, 30 mg/kg, 7 h |  | CSF concentration | 6 nM |
| O=C(O)CSc1nnc(Br)n1-c1ccc(C2CC2)c2ccccc12 |  | KM mouse, chronic hyperuricaemia model | dose not given, day 13 |  | body weight | 35.8 g and 28 g and 33.8 g and 32 g and 32.2 g and 27.8 g |
| COCCOc1cnc2ccn([C@H](C)c3nnc4c(F)cc(-c5cnn(C)c5)cn34)c(=O)c2c1 |  | patients, plasma | oral, 150 mg once daily, day 28 24 h postdose |  | Ctrough | 0.1 µg/mL |
| CCOC(=O)N1C[C@@H](C2CCCCC2)N[C@@H](c2cccc(Br)c2)C1 | shake-flask, LC-HRMS | aqueous buffer | 16 h, pH 6.8 |  | solubility | < 4 µM |
| CN1CCN(c2cccc3c2CCN(C(=O)/C=C/c2c(-n4cnnn4)ccc(Cl)c2F)[C@@H]3C(=O)Nc2ccc(C(=O)O)cc2)C(=O)C1 |  | healthy human subjects | intravenous infusion, 1 mg/h, 5 days |  | discontinuations due to adverse events | 0% |
| CC(C)NCCCC[C@@H]1NC(=O)[C@H](Cc2ccc(O)cc2)NC(=O)[C@H](Cc2ccccc2)NC(=O)CC[C@H](C(=O)N[C@@H](CCCCNC(C)C)C(=O)N[C@@H](CCCCNC(=O)[C@H](CCC(=O)O)NC(=O)[C@H](CCC(=O)O)NC(=O)[C@H](CCC(=O)O)NC(=O)CN2CCN(CC(=O)O)CCN(CC(=O)O)CCN(CC(=O)O)CC2)C(N)=O)NC(=O)CNC(=O)[C@H](Cc2ccc3ccccc3c2)NC(=O)[C@@H](CCCNC(=N)N)NC1=O [gallium-68 labelled] |  | mouse with PC-3 xenograft, intestine | intravenous, 1 h |  | tissue uptake | 0.3 %ID/g |
| Cc1cc(Nc2ncnc3ccc(NC4=NC(C)(CO)CO4)cc23)ccc1Oc1ccn2ncnc2c1 (centres unmarked) |  | human, plasma | oral, 300 mg tucatinib single dose, day 1, tucatinib alone |  | Cmax (geometric mean) | 42.6 ng/mL |
| C[C@H]1CN(C(=O)CC#N)[C@]12CCN(c1ncnc3[nH]ccc13)C2 |  | human | oral, dose not given, all compound groups |  | participants with catheter site bruise | 6.3% |
| CN1CCC[C@H](CN2c3ccccc3Sc3ccccc32)C1.Cl |  | ICR mouse female fasted, plasma | oral, 16 mg/kg |  | AUC(0-t) | 1340 ng·h/mL |
| CC1(C)CCC(CN2CCN(c3ccc(C(=O)NS(=O)(=O)c4ccc(NCC5CCOCC5)c([N+](=O)[O-])c4)c(Oc4cnc5[nH]ccc5c4)c3)CC2)=C(c2ccc(Cl)cc2)C1 |  | human, blood | concentration not given, visit 2 after treatment |  | absolute neutrophil count | 6200 cells/µL and 3400 cells/µL |
| COc1cccc(-c2n[nH]c(SCc3ccccn3)n2)c1OC |  | Sprague-Dawley rats, both sexes | oral dietary, 30 mg/kg/day, day 7, 6 h |  | plasma concentration | 2060 ng/mL |
| COC(=O)c1ccc(NC(=O)CSc2nnnn2-c2ccccc2OC)cc1 |  | aqueous buffer | pH 7.4 |  | solubility | < 2.85 µg/mL |
| CO[C@H]1C[C@@H]2CC[C@@H](C)[C@@](O)(O2)C(=O)C(=O)N2CCCC[C@H]2C(=O)O[C@H]([C@H](C)C[C@@H]2CC[C@@H](O)[C@H](OC)C2)CC(=O)[C@H](C)/C=C(\C)[C@@H](O)[C@@H](OC)C(=O)[C@H](C)C[C@H](C)/C=C/C=C/C=C/1C |  | healthy adult horses | intravenous, 0.06 mg/kg, 10 h |  | heart rate | 32.5 ± 3.1 beats/min |
